# Literature values, collected from citations in different studies.
# Each line is one published result; not all experiments were run side by side. pEC50, pIC50: −log10 of the molar value.
# lasR: Transcriptional activator protein LasR (lasR, Pseudomonas aeruginosa, UniProt P25084)
# Chain of UniProt P25084 (whole entry, looked up): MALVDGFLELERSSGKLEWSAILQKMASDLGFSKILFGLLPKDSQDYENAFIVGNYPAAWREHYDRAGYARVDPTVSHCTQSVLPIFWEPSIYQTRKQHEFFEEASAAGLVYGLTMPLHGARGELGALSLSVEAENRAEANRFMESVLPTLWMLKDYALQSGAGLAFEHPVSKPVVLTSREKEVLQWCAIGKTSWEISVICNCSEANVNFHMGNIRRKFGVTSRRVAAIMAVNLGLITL
SMILES,target or system,assay,system,setting,measurement,result
O=C(Nc1cccnc1)N(CCN1CCOCC1)c1cccc(Cl)c1,main protease (Mpro),,,20 µM,inhibition,24.4%
CC(=O)OC12COC1CC(O)C1(C)C(=O)C(OC(=O)C3CC3)C3=C(C)C(OC(=O)C(O)C(C=C(C)C)NC(=O)OC(C)(C)C)CC(O)(C(OC(=O)c4cccc(OC(F)F)c4)C21)C3(C)C (stereo not shown),LCC6-WT,cytotoxicity,,,pIC50,9.35
CC(=O)N1CCN(CC(=O)Nc2cncc3ccccc23)CC1,main protease (Mpro),,,50 µM,inhibition,42.4%
NS(=O)(=O)c1nnc(NC(=O)CCc2ccccc2)s1,Enterococcus,,"vancomycin-resistant, three strains",range across strains,MIC,0.192 to 0.384 µM
CC[C@H](C)[C@H](NC(=O)CNC(=O)[C@@H](NC(=O)CNC(=O)[C@@H](NC(=O)CNC(=O)[C@@H](NC(=O)[C@@H](NC(=O)[C@H](CCC(N)=O)NC(=O)[C@H](CCC(=O)O)NC(=O)[C@@H](NC(=O)[C@H](CC(C)C)NC(=O)[C@H](CCCNC(=N)N)NC(=O)[C@H](Cc1ccccc1)NC(=O)[C@@H](NC(=O)[C@H](CC(N)=O)NC(=O)[C@H](CCCCN)NC(=O)CNC(=O)[C@H](CCSC)NC(=O)[C@H](CCCCN)NC(=O)CNC(=O)[C@H](CC(C)C)NC(=O)[C@H](CCCCN)NC(=O)[C@H](CCCCN)NC(=O)CNC(=O)[C@H](Cc1ccccc1)NC(=O)[C@H](CCCCN)NC(=O)[C@H](CCCCN)NC(=O)[C@H](CC(C)C)NC(=O)[C@H](Cc1c[nH]c2ccccc12)NC(=O)CN)C(C)C)C(C)C)C(C)C)C(C)C)C(C)C)C(C)C)C(=O)N[C@@H](CC(N)=O)C(=O)N[C@@H](C)C(=O)N[C@@H](CC(C)C)C(=O)N[C@@H](CO)C(=O)O,Pseudomonas aeruginosa,,,,MIC,16 µM
Cc1c(CC(=O)N[C@@H](Cc2ccccc2)C(=O)N(C)c2ccc(Cl)cc2)c2ccccc2n1C(C)C,HIV-1 capsid hexamer wild type,,,,ΔTm,8.5 °C
N#Cc1ccnc(N2C(=O)CC[C@H]2C(=O)N(c2cncc(F)c2)[C@H](C(=O)NC2CC(F)(F)C2)c2ccccc2Cl)c1,,,pretreated mIDH1 cholangiocarcinoma patients,"dose not given, trial",median progression-free survival,3.8 months
O=C(CC(=O)N[C@H]1CCOC1=O)Cc1ccccc1,lasR,"lasI-lacZ reporter, inhibitor",,5 µM,inhibition,18%
Cc1ccc(NC2CNC2)cc1C(=O)N[C@H](C)c1cccc(-c2ccc(CN3CCCC3)s2)c1,SARS-CoV-2,viral replication,A549,,pEC50,5.92
COc1ccc2c3c1O[C@H]1[C@H](O)CC[C@@]4(O)[C@@H](C2)N(C)CC[C@]314,,"analgesia, Haffner tail-clip test",mouse,subcutaneous,ED50,8 mg/kg
COC(=O)OC1C(=O)C2(C)C(O)CC3OCC3(OC(C)=O)C2C(OC(=O)c2cccc(OC(F)F)c2)C2(O)CC(OC(=O)C(O)C(C=C(C)C)NC(=O)OC(C)(C)C)C(C)=C1C2(C)C (stereo not shown),HCT-116,cytotoxicity,,,pIC50,8.89
Oc1c(Br)cc(Br)c2nc3cc(Cl)ccc3nc12,Staphylococcus aureus,,MRSA,planktonic cells,MIC,0.1 µM
CCCCCCCCCCCCNC=C1N=C(c2ccc[nH]2)C=C1OC.Cl,HepG2,cytotoxicity,,,IC50,2.4 µg/mL
CC[C@H](C)[C@H](NC(=O)[C@@H]1CCCN1C(=O)[C@H](CS)NC(=O)[C@H](Cc1ccc(O)cc1)NC(=O)[C@@H]1CCCN1C(=O)[C@H](CC(C)C)NC(=O)[C@H](CCCNC(=N)N)NC(=O)[C@H](CO)NC(=O)[C@H](Cc1ccc(O)cc1)NC(=O)[C@H](Cc1ccccc1)NC(=O)[C@H](CC(N)=O)NC(=O)[C@H](CCCNC(=N)N)NC(=O)[C@H](CS)NC(=O)[C@H](Cc1ccc(O)cc1)NC(=O)[C@H](CO)NC(=O)CNC(=O)[C@H](CO)NC(=O)[C@@H]1CCCN1C(=O)[C@H](CC(C)C)NC(=O)[C@H](Cc1ccc(O)cc1)NC(=O)[C@H](C)NC(=O)[C@@H]1CCCN1C(=O)[C@H](CCCNC(=N)N)NC(=O)CN)C(=O)N[C@@H](CCCNC(=N)N)C(=O)NCC(=O)NCC(=O)N[C@@H](Cc1c[nH]cn1)C(=O)N[C@@H](CS)C(=O)N[C@@H](CCCNC(=N)N)C(=O)O,Pseudomonas aeruginosa,,,,MIC,32 µM
CCCCCCC#Cc1cncc(-c2nnc(SCc3ccc([N+](=O)[O-])cc3)n2C)c1,Mycobacterium tuberculosis,MABA,Erdman wild type,,pIC50,5.23
CC(C)[C@H](NC(=O)CNC(=O)CNC(=O)[C@H](Cc1ccc(O)cc1)NC(=O)[C@H](CS)NC(=O)[C@@H](NC(=O)[C@H](Cc1c[nH]c2ccccc12)NC(=O)[C@H](Cc1ccccc1)NC(=O)[C@H](CS)NC(=O)[C@H](Cc1c[nH]c2ccccc12)NC(=O)[C@@H](N)CCCNC(=N)N)C(C)C)C(=O)N[C@@H](CS)C(=O)N[C@@H](Cc1ccc(O)cc1)C(=O)N[C@@H](CCCNC(=N)N)C(=O)N[C@@H](CCCNC(=N)N)C(=O)N[C@@H](CS)C(=O)N[C@@H](CCCNC(=N)N)C(=O)O,Pseudomonas aeruginosa,,,,MIC,64 µM
CN(C(=O)[C@H](Cc1ccccc1)NC(=O)Cc1c[nH]c2ccc(O)cc12)c1ccccc1,HIV-1 capsid hexamer wild type,,,,ΔTm,6.8 °C
CN1CCN(S(=O)(=O)c2ccc(-c3ccc4ncnc(Nc5ccccc5)c4c3)cc2)CC1,Trypanosoma brucei,parasite growth,,,pEC50,5.82
CC(C)[C@H](NC(=O)[C@H](Cc1ccc(O)cc1)NC(=O)[C@H](CS)NC(=O)[C@@H](NC(=O)[C@H](CCCNC(=N)N)NC(=O)[C@H](Cc1ccccc1)NC(=O)[C@H](CS)NC(=O)[C@H](Cc1c[nH]c2ccccc12)NC(=O)[C@@H](N)CCCNC(=N)N)C(C)C)C(=O)NCC(=O)N[C@@H](Cc1ccccc1)C(=O)N[C@@H](CS)C(=O)N[C@@H](Cc1ccc(O)cc1)C(=O)N[C@@H](Cc1c[nH]c2ccccc12)C(=O)N[C@@H](CCCCN)C(=O)N[C@@H](CS)C(=O)N[C@@H](CCCNC(=N)N)C(=O)O,Pseudomonas aeruginosa,,,,MIC,8 µM
NC[C@]1(CC(=O)O)CC[C@H]([18F])CC1,α2δ-1,radioligand binding,,,pIC50,5.62
CC[C@H](C)[C@H](NC(=O)[C@H](CCCNC(=N)N)NC(=O)[C@@H](NC(=O)[C@@H]1CCCN1C(=O)[C@H](CCCNC(=N)N)NC(=O)[C@@H](NC(=O)[C@@H]1CCCN1C(=O)[C@H](CC(C)C)NC(=O)[C@H](CC(C)C)NC(=O)CNC(=O)[C@H](Cc1c[nH]cn1)NC(=O)[C@@H]1CCCN1C(=O)CNC(=O)[C@H](Cc1ccccc1)NC(=O)[C@H](CC(=O)O)NC(=O)[C@H](Cc1c[nH]c2ccccc12)NC(=O)[C@H](C)NC(=O)[C@@H](NC(=O)[C@H](C)N)[C@@H](C)O)[C@@H](C)CC)[C@@H](C)CC)C(=O)N[C@@H](CCCNC(=N)N)C(=O)N1CCC[C@H]1C(=O)N[C@@H](CC(C)C)C(=O)N[C@@H](CS)C(=O)NCC(=O)N[C@@H](CCCCN)C(=O)N[C@@H](CC(=O)O)C(=O)O,Staphylococcus aureus,,,,MIC,> 128 µM
O=C(Nc1ccccc1NC(=O)c1cccc(Cl)c1)c1cccc(Cl)c1,lasR,"rsaL-yfp reporter, inhibitor",PAO-MW1,,maximal inhibition,90%

# Some of these lines once more:
SMILES,target or system,assay,system,setting,measurement,result
NS(=O)(=O)c1nnc(NC(=O)CCc2ccccc2)s1,Enterococcus,,"vancomycin-resistant, three strains",range across strains,MIC,0.192 to 0.384 µM
COC(=O)OC1C(=O)C2(C)C(O)CC3OCC3(OC(C)=O)C2C(OC(=O)c2cccc(OC(F)F)c2)C2(O)CC(OC(=O)C(O)C(C=C(C)C)NC(=O)OC(C)(C)C)C(C)=C1C2(C)C (stereo not shown),HCT-116,cytotoxicity,,,pIC50,8.89
CCCCCCC#Cc1cncc(-c2nnc(SCc3ccc([N+](=O)[O-])cc3)n2C)c1,Mycobacterium tuberculosis,MABA,Erdman wild type,,pIC50,5.23
